# Assay results of several laboratories.
# ± marks the error that the study gave.
# Organism: Escherichia coli
Compound,test,system,conditions,MIC
CC(C)C[C@H](NC(=O)[C@H](Cc1ccccc1)NC(=O)[C@H](CCCCN)NC(=O)[C@@H](N)CCCCN)C(=O)NCC(=O)N[C@@H](CCCCN)C(=O)N[C@@H](Cc1c[nH]c2ccccc12)C(=O)N[C@@H](CCCCN)C(=O)N[C@@H](CC(C)C)C(=O)N[C@@H](CCCNC(=N)N)C(=O)N[C@@H](Cc1ccccc1)C(=O)NCC(=O)N[C@@H](Cc1c[nH]c2ccccc12)C(N)=O,,ATCC 25922,"1 h, 37 °C, non-dividing cells in PBS",12.5 µg/mL
N=C(N)NCCC[C@H](NC(=O)[C@H](Cc1c[nH]cn1)NC(=O)[C@@H]1CCCN1C(=O)[C@H](CS)NC(=O)CN)C(=O)N[C@@H](CS)C(=O)O,broth microdilution,MTCC 443,37 °C,80 µg/mL
CC(C)C[C@H](NC(=O)[C@H](CCCNC(=N)N)NC(=O)[C@@H]1CCCN1C(=O)[C@H](Cc1c[nH]cn1)NC(=O)[C@@H]1CCCN1C(=O)[C@@H]1CCCN1C(=O)[C@H](CCCNC(=N)N)NC(=O)[C@@H]1CCCN1C(=O)[C@H](CCC(N)=O)NC(=O)[C@@H]1CCCN1C(=O)[C@H](CCCCN)NC(=O)[C@H](Cc1ccc(O)cc1)NC(=O)[C@@H](NC(=O)[C@@H]1CCCN1C(=O)[C@H](CCCCN)NC(=O)[C@H](CC(N)=O)NC(=O)[C@H](CC(N)=O)NC(=O)CN)C(C)C)C(=O)O,,JW0368 ΔsbmA,"18 h, 37 °C, 12.5% Mueller-Hinton broth",0.096 ± 0.023 µM
CC(C)C[C@H](NC(=O)[C@H](C)NC(=O)[C@H](CC(C)C)NC(=O)[C@@H](NC(=O)[C@H](CC(C)C)NC(=O)[C@H](Cc1c[nH]cn1)NC(=O)[C@H](CC(C)C)NC(=O)[C@@H](NC(=O)[C@@H](N)CO)[C@@H](C)O)C(C)C)C(=O)N[C@@H](CCCNC(=N)N)C(=O)NCC(=O)NCC(=O)O,,DH5α,"37 °C, ≥90% viability decrease",> 100 µM
CC[C@H](C)[C@H](NC(=O)CN)C(=O)N[C@@H](CCCCN)C(=O)N[C@@H](Cc1ccccc1)C(=O)N[C@@H](Cc1ccccc1)C(=O)N[C@@H](CC(C)C)C(=O)N[C@@H](CCCCN)C(=O)N[C@@H](CCCCN)C(=O)N[C@@H](CC(C)C)C(=O)N[C@@H](CCCCN)C(=O)N[C@@H](CCCCN)C(=O)N[C@@H](Cc1c[nH]cn1)C(N)=O,,ATCC 25922,"1 h, 37 °C, non-dividing cells in PBS",50 to 100 µg/mL
CC[C@H](C)[C@H](NC(=O)[C@H](Cc1ccc(O)cc1)NC(=O)[C@@H](NC(=O)[C@@H]1CCCN1C(=O)[C@H](CCCNC(=N)N)NC(=O)[C@H](CC(N)=O)NC(=O)[C@H](CC(N)=O)NC(=O)CN)C(C)C)C(=O)N1CCC[C@H]1C(=O)N[C@@H](CCC(N)=O)C(=O)N1CCC[C@H]1C(=O)N[C@@H](CCCNC(=N)N)C(=O)N1CCC[C@H]1C(=O)N1CCC[C@H]1C(=O)N[C@@H](Cc1c[nH]cn1)C(=O)N1CCC[C@H]1C(=O)N[C@@H](CCCNC(=N)N)C(=O)N[C@@H](CC(C)C)C(=O)O,broth microdilution,"BW25113 parental, Mueller-Hinton broth","18 h, 37 °C",0.024 ± 0.006 µM
CC[C@H](C)[C@H](NC(=O)[C@H](CCCNC(=N)N)NC(=O)[C@H](CC(C)C)NC(=O)[C@H](CCC(N)=O)NC(=O)[C@H](CCCCN)NC(=O)[C@H](CC(C)C)NC(=O)[C@H](CC(C)C)NC(=O)[C@H](CC(C)C)NC(=O)[C@@H](NC(=O)[C@H](CCCCN)NC(=O)[C@H](CC(=O)O)NC(=O)[C@H](C)NC(=O)[C@@H](NC(=O)[C@H](CCCCN)NC(=O)[C@H](CCCCN)NC(=O)[C@H](CC(=O)O)NC(=O)[C@@H](NC(=O)[C@@H](N)Cc1c[nH]cn1)C(C)C)C(C)C)C(C)C)C(=O)N[C@@H](CCSC)C(=O)N[C@@H](CCCNC(=N)N)C(=O)N[C@@H](CC(C)C)C(=O)N[C@@H](CC(C)C)C(=O)N[C@H](C(=O)N[C@@H](CCCNC(=N)N)C(=O)N[C@@H](CC(C)C)C(=O)O)[C@@H](C)O,broth microdilution,K12,37 °C,> 81 µM
CC(C)C[C@H](NC(=O)[C@H](CCCNC(=N)N)NC(=O)[C@@H]1CCCN1C(=O)[C@H](Cc1c[nH]cn1)NC(=O)[C@@H]1CCCN1C(=O)[C@@H]1CCCN1C(=O)[C@H](CCCNC(=N)N)NC(=O)[C@@H]1CCCN1C(=O)[C@H](CCC(N)=O)NC(=O)[C@@H]1CCCN1C(=O)[C@H](CCCNC(=N)N)NC(=O)[C@H](Cc1ccc(O)cc1)NC(=O)[C@@H](NC(=O)[C@@H]1CCCN1C(=O)[C@H](CCCCN)NC(=O)[C@H](CC(N)=O)NC(=O)[C@H](CC(N)=O)NC(=O)CN)C(C)C)C(=O)O,broth microdilution,"BW25113, 5% M9 medium",,0.192 ± 0.044 µM
CC[C@H](C)[C@H](NC(=O)CN)C(=O)NCC(=O)N[C@@H](CCCCN)C(=O)N[C@@H](Cc1ccccc1)C(=O)N[C@@H](CC(C)C)C(=O)N[C@@H](CCCCN)C(=O)N[C@@H](CCCCN)C(=O)N[C@@H](C)C(=O)N[C@@H](CCCCN)C(=O)N[C@@H](CCCCN)C(=O)N[C@@H](Cc1ccccc1)C(=O)NCC(=O)N[C@@H](CCCCN)C(=O)N[C@@H](C)C(=O)N[C@@H](Cc1ccccc1)C(=O)N[C@H](C(=O)N[C@@H](CCCCN)C(=O)N[C@H](C(=O)N[C@@H](CC(C)C)C(=O)N[C@@H](CCCCN)C(=O)N[C@@H](CCCCN)C(N)=O)[C@@H](C)CC)C(C)C,,K12,,6.3 µg/mL
CC[C@H](C)[C@H](NC(=O)[C@H](C)NC(=O)[C@H](CCCNC(=N)N)NC(=O)CNC(=O)[C@H](C)NC(=O)[C@H](CCC(=O)O)NC(=O)CNC(=O)[C@H](CC(=O)O)NC(=O)[C@H](Cc1ccc(O)cc1)NC(=O)[C@H](Cc1ccccc1)NC(=O)CNC(=O)[C@H](CCCCN)NC(=O)[C@H](CCCNC(=N)N)NC(=O)[C@H](CC(C)C)NC(=O)[C@H](CO)NC(=O)[C@H](CO)NC(=O)[C@H](Cc1c[nH]c2ccccc12)NC(=O)[C@H](Cc1ccccc1)NC(=O)[C@H](CC(N)=O)NC(=O)[C@H](CCCCN)NC(=O)[C@H](Cc1c[nH]c2ccccc12)NC(=O)[C@H](C)NC(=O)CN)C(=O)N[C@@H](CCCNC(=N)N)C(=O)N[C@@H](CCCNC(=N)N)C(=O)O,broth microdilution,K12,37 °C,> 38.9 µM
CO/N=C(\C(=O)N[C@@H]1C(=O)N2C(C(=O)O)=C(COC(C)=O)CS[C@H]12)c1csc(N)n1,,AmpC-overproducing clinical isolate,"alone without inhibitor, second isolate",8 µg/mL
CC(C)C[C@@H](N)C(=O)N[C@@H](C(=O)N[C@H](Cc1c[nH]c2ccccc12)C(=O)N[C@H](CCCCN)C(=O)N[C@H](CC(C)C)C(=O)N[C@H](Cc1c[nH]c2ccccc12)C(=O)N[C@H](Cc1c[nH]c2ccccc12)C(=O)N[C@H](CCCNC(=N)N)C(=O)N[C@H](CC(C)C)C(=O)N[C@H](CCCNC(=N)N)C(=O)N[C@H](Cc1c[nH]c2ccccc12)C(=O)N[C@H](CC(C)C)C(=O)N[C@H](CCCCN)C(N)=O)C(C)C,,ATCC 25922,"1 h, 37 °C, non-dividing cells in PBS",50 µg/mL
CC[C@H](C)[C@H](NC(=O)[C@H](CC(=O)O)NC(=O)[C@H](Cc1ccccc1)NC(=O)[C@H](CC(C)C)NC(=O)CN)C(=O)N[C@H](C(=O)N[C@@H](CCCCN)C(=O)N[C@@H](CCCCN)C(=O)N[C@H](C(=O)N[C@H](C(=O)N[C@@H](CCCCN)C(=O)N[C@@H](CC(C)C)C(=O)N[C@@H](CC(C)C)C(=O)N[C@@H](CCCCN)C(N)=O)C(C)C)C(C)C)C(C)C,,"ATCC 25922, CAMHB","18 h, 37 °C",> 20 µM
CC[C@H](C)[C@H](NC(=O)[C@H](CCCNC(=N)N)NC(=O)[C@@H](N)CCCNC(=N)N)C(=O)N[C@@H](CCCCN)C(=O)N[C@@H](CCCCN)C(=O)N[C@@H](CCCNC(=N)N)C(=O)N1CCC[C@H]1C(=O)N1CCC[C@H]1C(=O)N[C@@H](CCCNC(=N)N)C(=O)N[C@@H](CC(C)C)C(=O)N1CCC[C@H]1C(=O)N[C@@H](CCCNC(=N)N)C(=O)N1CCC[C@H]1C(=O)N[C@@H](CCCNC(=N)N)C(=O)N1CCC[C@H]1C(=O)N[C@@H](CCCNC(=N)N)C(=O)O,,JW0368 ΔsbmA,"18 h, 37 °C, 12.5% Mueller-Hinton broth",0.06 ± 0.014 µM
CC[C@H](C)[C@H](NC(=O)[C@H](CCCCN)NC(=O)CNC(=O)[C@H](CC(C)C)NC(=O)[C@@H](NC(=O)[C@H](C)NC(=O)[C@H](CCCCN)NC(=O)CNC(=O)[C@H](C)NC(=O)CNC(=O)[C@H](CCCCN)NC(=O)[C@@H](NC(=O)[C@H](CCCCN)NC(=O)[C@@H](NC(=O)[C@H](Cc1c[nH]c2ccccc12)NC(=O)[C@H](CC(C)C)NC(=O)[C@H](CCC(=O)O)NC(=O)[C@H](CCCCN)NC(=O)[C@H](CC(C)C)NC(=O)[C@@H](N)CC(C)C)[C@@H](C)O)[C@@H](C)CC)C(C)C)C(=O)N[C@@H](CCCCN)C(=O)NCC(=O)N[C@@H](CC(C)C)C(=O)N[C@@H](CC(C)C)C(=O)O,broth microdilution,K12,37 °C,> 25 µM
CC[C@H](C)[C@H](NC(=O)[C@H](CCCNC(=N)N)NC(=O)[C@H](Cc1c[nH]c2ccccc12)NC(=O)[C@H](CCCNC(=N)N)NC(=O)[C@@H](N)CCCCN)C(=O)N[C@@H](CCCNC(=N)N)C(=O)N[C@H](C(=O)N[C@@H](CCCNC(=N)N)C(=O)N[C@H](C(=O)N[C@H](C(=O)N[C@@H](CCCNC(=N)N)C(=O)N[C@@H](CCCCN)C(=O)N[C@@H](CS)C(=O)O)[C@@H](C)CC)C(C)C)C(C)C,,ATCC 25922,"24 h, 37 °C",15 µM
CC[C@H](C)[C@H](NC(=O)[C@H](Cc1ccc(O)cc1)NC(=O)[C@@H](NC(=O)[C@@H]1CCCN1C(=O)[C@H](CCCCN)NC(=O)[C@H](CC(N)=O)NC(=O)[C@H](CC(N)=O)NC(=O)CN)C(C)C)C(=O)N1CCC[C@H]1C(=O)N[C@@H](CCC(N)=O)C(=O)N1CCC[C@H]1C(=O)N[C@@H](CCCNC(=N)N)C(=O)N1CCC[C@H]1C(=O)N1CCC[C@H]1C(=O)N[C@@H](CCCNC(=N)N)C(=O)N1CCC[C@H]1C(=O)N[C@@H](CCCNC(=N)N)C(=O)N[C@@H](CC(C)C)C(=O)O,broth microdilution,"BW25113 parental, Mueller-Hinton broth","18 h, 37 °C",0.048 ± 0.011 µM
CC[C@H](C)[C@H](NC(=O)[C@H](C)NC(=O)[C@H](CCCCN)NC(=O)[C@@H](NC(=O)[C@@H]1CCCN1C(=O)[C@@H](NC(=O)[C@H](CCCCN)NC(=O)[C@H](C)N)[C@@H](C)CC)[C@@H](C)CC)C(=O)N[C@@H](CCCCN)C(=O)N[C@H](C(=O)N[C@H](C(=O)NCC(=O)N[C@@H](CCCCN)C(=O)N[C@@H](C)C(=O)N[C@H](C(=O)NCC(=O)N[C@@H](CCCCN)C(=O)NCC(=O)N[C@@H](CC(C)C)C(=O)N[C@@H](CCCNC(=N)N)C(=O)N[C@@H](C)C(=O)N[C@H](C(=O)N[C@@H](CC(N)=O)C(=O)N[C@H](C(=O)N[C@@H](C)C(=O)N[C@@H](CO)C(=O)N[C@H](C(=O)N[C@@H](C)C(=O)N[C@@H](CC(N)=O)C(=O)N[C@@H](CC(=O)O)C(=O)N[C@H](C(=O)N[C@@H](Cc1ccccc1)C(=O)N[C@@H](CC(N)=O)C(=O)N[C@@H](Cc1ccccc1)C(=O)N[C@@H](CC(C)C)C(=O)N[C@@H](CCCCN)C(=O)N1CCC[C@H]1C(=O)N[C@@H](CCCCN)C(=O)N[C@@H](CCCCN)C(=O)N[C@@H](CCCNC(=N)N)C(=O)N[C@@H](CCCCN)C(=O)N[C@@H](Cc1c[nH]cn1)C(=O)O)C(C)C)[C@@H](C)O)[C@@H](C)CC)[C@@H](C)CC)C(C)C)C(C)C)[C@@H](C)O,bacterial growth,DH5α,37 °C,1 µM
